Measurements from different studies.
Compare with care: the assays were run in different laboratories. ± gives the spread as reported. Values after ≈ are worked out from the molar mass of the structure shown.

Chains of the proteins cited; added tags and fusions are not shown.
UniProt P42679, whole entry: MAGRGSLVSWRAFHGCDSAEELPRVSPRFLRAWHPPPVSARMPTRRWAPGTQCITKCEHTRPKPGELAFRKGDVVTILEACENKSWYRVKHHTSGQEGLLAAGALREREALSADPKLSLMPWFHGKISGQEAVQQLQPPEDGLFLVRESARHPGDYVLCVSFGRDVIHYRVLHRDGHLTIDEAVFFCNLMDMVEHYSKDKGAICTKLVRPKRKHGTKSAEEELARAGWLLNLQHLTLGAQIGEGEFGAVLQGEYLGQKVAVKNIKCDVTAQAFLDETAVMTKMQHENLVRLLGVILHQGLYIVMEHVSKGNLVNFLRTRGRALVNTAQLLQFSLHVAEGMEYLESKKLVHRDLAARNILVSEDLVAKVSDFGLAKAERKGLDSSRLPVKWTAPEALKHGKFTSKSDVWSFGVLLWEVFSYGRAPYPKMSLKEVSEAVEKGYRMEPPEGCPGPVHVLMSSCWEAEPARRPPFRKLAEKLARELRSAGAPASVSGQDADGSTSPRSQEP
UniProt Q9H4A3, whole entry: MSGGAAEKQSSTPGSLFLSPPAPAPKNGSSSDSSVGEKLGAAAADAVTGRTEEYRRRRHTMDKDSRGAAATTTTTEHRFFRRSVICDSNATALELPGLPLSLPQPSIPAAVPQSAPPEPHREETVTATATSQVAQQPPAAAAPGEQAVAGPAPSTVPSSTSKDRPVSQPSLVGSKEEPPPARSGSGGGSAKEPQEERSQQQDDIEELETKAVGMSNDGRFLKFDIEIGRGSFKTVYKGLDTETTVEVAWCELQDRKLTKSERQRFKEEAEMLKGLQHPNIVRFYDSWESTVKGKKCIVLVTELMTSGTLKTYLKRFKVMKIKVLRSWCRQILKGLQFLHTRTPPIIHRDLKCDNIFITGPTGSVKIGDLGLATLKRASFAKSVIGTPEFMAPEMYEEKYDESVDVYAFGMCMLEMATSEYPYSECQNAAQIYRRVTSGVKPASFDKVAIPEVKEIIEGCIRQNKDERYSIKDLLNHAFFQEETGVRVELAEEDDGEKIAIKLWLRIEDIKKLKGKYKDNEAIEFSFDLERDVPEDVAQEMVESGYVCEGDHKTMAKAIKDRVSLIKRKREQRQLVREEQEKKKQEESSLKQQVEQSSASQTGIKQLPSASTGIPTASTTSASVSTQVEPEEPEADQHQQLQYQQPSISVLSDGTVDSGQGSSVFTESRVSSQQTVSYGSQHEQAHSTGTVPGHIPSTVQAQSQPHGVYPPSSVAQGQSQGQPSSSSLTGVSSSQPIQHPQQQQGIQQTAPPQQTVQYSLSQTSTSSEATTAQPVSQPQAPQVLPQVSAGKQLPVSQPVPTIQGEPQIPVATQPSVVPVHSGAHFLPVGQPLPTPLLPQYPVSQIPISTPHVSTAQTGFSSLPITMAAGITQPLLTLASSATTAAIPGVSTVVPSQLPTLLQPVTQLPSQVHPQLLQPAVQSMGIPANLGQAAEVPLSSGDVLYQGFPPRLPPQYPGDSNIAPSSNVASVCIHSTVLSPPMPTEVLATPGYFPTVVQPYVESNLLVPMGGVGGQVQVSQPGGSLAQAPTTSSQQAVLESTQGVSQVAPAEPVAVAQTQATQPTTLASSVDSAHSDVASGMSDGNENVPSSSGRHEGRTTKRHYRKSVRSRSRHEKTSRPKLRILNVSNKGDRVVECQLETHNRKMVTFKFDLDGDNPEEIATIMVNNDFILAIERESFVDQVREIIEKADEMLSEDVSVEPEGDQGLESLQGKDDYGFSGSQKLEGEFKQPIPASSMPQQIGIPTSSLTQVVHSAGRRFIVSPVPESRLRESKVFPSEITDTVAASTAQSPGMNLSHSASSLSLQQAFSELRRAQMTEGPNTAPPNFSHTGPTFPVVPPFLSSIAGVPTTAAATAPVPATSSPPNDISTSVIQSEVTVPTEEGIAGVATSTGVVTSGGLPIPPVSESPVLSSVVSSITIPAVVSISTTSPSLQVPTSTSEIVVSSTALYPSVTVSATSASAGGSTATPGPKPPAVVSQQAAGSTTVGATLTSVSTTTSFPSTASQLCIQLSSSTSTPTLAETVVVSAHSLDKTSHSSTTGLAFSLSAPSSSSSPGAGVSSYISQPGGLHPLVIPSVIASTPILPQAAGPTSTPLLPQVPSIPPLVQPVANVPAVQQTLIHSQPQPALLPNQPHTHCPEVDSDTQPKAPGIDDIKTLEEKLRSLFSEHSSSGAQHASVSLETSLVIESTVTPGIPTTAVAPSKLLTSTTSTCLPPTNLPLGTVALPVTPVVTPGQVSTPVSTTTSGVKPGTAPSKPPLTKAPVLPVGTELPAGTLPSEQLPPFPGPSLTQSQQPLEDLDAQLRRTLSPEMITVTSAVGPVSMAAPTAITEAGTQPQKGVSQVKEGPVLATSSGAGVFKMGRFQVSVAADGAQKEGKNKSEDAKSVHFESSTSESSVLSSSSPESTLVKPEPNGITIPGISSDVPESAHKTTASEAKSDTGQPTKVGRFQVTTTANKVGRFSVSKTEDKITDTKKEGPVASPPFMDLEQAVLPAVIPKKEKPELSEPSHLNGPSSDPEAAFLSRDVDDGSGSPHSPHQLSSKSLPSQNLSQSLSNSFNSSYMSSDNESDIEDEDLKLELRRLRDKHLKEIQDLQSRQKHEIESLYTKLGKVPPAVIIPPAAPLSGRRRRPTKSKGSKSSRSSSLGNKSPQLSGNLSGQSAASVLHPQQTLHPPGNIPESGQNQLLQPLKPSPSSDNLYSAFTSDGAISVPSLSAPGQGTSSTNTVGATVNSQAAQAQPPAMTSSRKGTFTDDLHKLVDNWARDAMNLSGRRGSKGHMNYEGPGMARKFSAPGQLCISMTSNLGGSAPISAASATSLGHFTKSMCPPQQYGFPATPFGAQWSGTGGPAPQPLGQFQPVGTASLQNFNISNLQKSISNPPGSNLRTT

Structure (SMILES) | tested on | assay | system | conditions | how to read | quantity | value
CC[C@H](C)[C@@H]([C@@H](CC(=O)N1CCC[C@H]1[C@H](OC)[C@@H](C)C(=O)NCCc1ccc(OP(=O)([O-])[O-])cc1)OC)N(C)C(=O)[C@@H](NC(=O)[C@H](C(C)C)N(C)C)C(C)C.[Na+].[Na+] | – | – | distilled water | 23 °C | – | solubility | > 236 mg/mL
CCCCCCCCCCCCCCCC(=O)NCCCC[C@H](NC(=O)CNC(=O)[C@H](CO)NC(=O)CNC(=O)[C@H](CCC(N)=O)NC(=O)[C@H](Cc1c[nH]cn1)NC(=O)[C@H](Cc1c[nH]c2ccccc12)NC(=O)[C@H](CCCCN)NC(=O)CNC(=O)[C@@H](NC(=O)[C@H](CO)NC(=O)[C@H](CCC(=O)O)NC(=O)[C@H](CC(C)C)NC(=O)[C@@H](NC(=O)[C@H](CCCCN)NC(=O)[C@H](CC(N)=O)NC(=O)[C@H](CO)NC(=O)[C@H](CCCNC(=N)N)NC(=O)[C@H](CCCNC(=N)N)NC(=O)[C@@H](NC(=O)[C@H](Cc1c[nH]c2ccccc12)NC(=O)[C@H](CCC(=O)O)NC(=O)[C@H](CCCCN)NC(=O)[C@H](CO)NC(=O)[C@H](CCC(=O)O)NC(=O)[C@H](CCC(=O)O)NC(=O)[C@H](CC(C)C)NC(=O)[C@H](CC(=O)O)NC(=O)[C@H](CCCCN)NC(=O)[C@H](CCCCN)NC(=O)[C@@H](NC(=O)[C@H](CCCCN)NC(=O)[C@H](CCCNC(=N)N)NC(=O)[C@H](CC(C)C)NC(=O)[C@@H](NC(=O)[C@H](CCC(=O)O)NC(=O)[C@H](CO)NC(=O)[C@@H](NC(=O)[C@H](CC(=O)O)NC(=O)[C@@H](NC(=O)[C@@H]1CCCN1C(=O)[C@H](CC(=O)O)NC(=O)[C@H](CC(C)C)NC(=O)[C@H](C)NC(=O)[C@@H](N)C(C)C)[C@@H](C)CC)[C@@H](C)CC)C(C)C)[C@@H](C)CC)[C@@H](C)CC)[C@@H](C)CC)[C@@H](C)CC)C(=O)O | – | – | PBS | – | – | solubility | 11.8 ± 0.87 mg/mL (≈ 2150 µM)
CCCSc1nc(N[C@@H]2C[C@H]2c2ccc(F)c(F)c2)c2nnn([C@@H]3C[C@H](OCCO)[C@@H](O)[C@H]3O)c2n1 | – | – | STEMI patients, plasma | 180 mg loading dose, 6 h, median, together with: morphine | – | AUC(0-6 h) | 0.579 µg·h/mL
CCCCCCCCCCCCCCCC(=O)NCCCC[C@H](NC(=O)CNC(=O)[C@H](CO)NC(=O)CNC(=O)[C@@H](NC(=O)[C@@H](NC(=O)[C@@H](NC(=O)[C@H](CO)NC(=O)[C@H](CO)NC(=O)[C@H](CCC(N)=O)NC(=O)[C@H](Cc1c[nH]cn1)NC(=O)[C@H](Cc1c[nH]c2ccccc12)NC(=O)[C@H](CC(N)=O)NC(=O)CNC(=O)[C@@H](NC(=O)[C@H](CO)NC(=O)[C@H](CC(=O)O)NC(=O)[C@H](CC(C)C)NC(=O)[C@@H](NC(=O)[C@H](CCCCN)NC(=O)[C@H](CC(N)=O)NC(=O)[C@H](CO)NC(=O)[C@H](CCCNC(=N)N)NC(=O)[C@H](CCCNC(=N)N)NC(=O)[C@@H](NC(=O)[C@H](Cc1c[nH]c2ccccc12)NC(=O)[C@H](CCC(=O)O)NC(=O)[C@H](CCCCN)NC(=O)[C@H](CO)NC(=O)[C@H](CCC(=O)O)NC(=O)[C@H](CCC(=O)O)NC(=O)[C@H](CC(C)C)NC(=O)[C@H](CC(=O)O)NC(=O)[C@H](CO)NC(=O)[C@H](CCCCN)NC(=O)[C@@H](NC(=O)[C@H](CCCCN)NC(=O)[C@H](CC(N)=O)NC(=O)[C@H](CC(C)C)NC(=O)[C@@H](N)C(C)C)[C@@H](C)CC)[C@@H](C)CC)[C@@H](C)CC)[C@@H](C)CC)[C@@H](C)O)[C@@H](C)O)[C@@H](C)CC)C(=O)O | – | – | water | – | – | solubility | 1.54 ± 0.13 mg/mL (≈ 321 µM)
Cc1cc(N(CCCl)CCCl)ccc1C(=O)O | – | – | mouse CD2F1, plasma | iv, 20 mg/kg of bendamustine | – | half-life | 2.27 h
C[n+]1ccccc1/C=N/O | – | – | human adult | 145 µmol/kg, assumed 5 L blood | – | maximum blood concentration | ~2 mM
C[C@H](Cc1ccc(O)c(O)c1)[C@@H](C)Cc1ccc(O)c(O)c1 | – | – | human skin | 3% w/v solution | – | epidermal retention | ~80%
CC#C/C(=N\OC[C@H]1COCCN1)c1ccc2ncnc(Nc3ccc(OCc4cccc(F)c4)c(Cl)c3)c2c1 | MATK (Homo sapiens, UniProt P42679) | kinase activity | – | 10 µM | – | inhibition | -12.2%
O=C(Nc1ccccc1)c1cc([N+](=O)[O-])ccc1Cl | – | LC-MS/MS | Sprague-Dawley rat, male, plasma | intravenous, 2.5 mg/kg | – | AUC(0-last) | 0.0428 µg·h/mL
CC(C)C[C@H](NC(=O)[C@@H]1C[C@@H](O)CN1C(=O)[C@H](Cc1ccccc1)NC(=O)[C@H](CO)NC(=O)[C@H](C)NC(=O)[C@H](Cc1ccccc1)NC(=O)[C@@H](NC(=O)[C@H](CCC(=O)O)NC(=O)[C@H](Cc1c[nH]cn1)NC(=O)[C@@H](NC(=O)[C@@H](NC(=O)[C@H](CCC(N)=O)NC(=O)[C@H](C)NC(=O)[C@@H](N)CC(=O)O)[C@@H](C)O)C(C)C)C(C)C)C(=O)N[C@@H](CC(=O)O)C(=O)N[C@@H](CO)C(=O)N[C@@H](CC(=O)O)C(=O)NCC(=O)N[C@H]1CSSC[C@@H](C(N)=O)NC(=O)[C@H](Cc2ccc(O)cc2)NC(=O)[C@H](Cc2c[nH]cn2)NC(=O)[C@H](CCCCN)NC(=O)CNC(=O)[C@@H]2CSSC[C@H](NC1=O)C(=O)N[C@@H](Cc1c[nH]c3ccccc13)C(=O)N[C@@H](CC(N)=O)C(=O)N1CCC[C@H]1C(=O)N[C@@H](C)C(=O)N2 | – | RP-HPLC | mouse serum 25% | 50 µM, 6 h, 37 °C | – | degradation to non-isomer products | 14.7 ± 0.86%
CCN1CCN(Cc2ccc(NC(=O)c3ccc(C)c(/C=C/c4cnc5[nH]ccc5c4OC)c3)cc2C(F)(F)F)CC1 | WNK1 (Homo sapiens, UniProt Q9H4A3) | inhibitor, cell-based kinome screen | – | 5 µM | relative to: vehicle | log2 fold change | -0.683
